Experimental data collected from several papers.
Every numbered part comes from another study and shows a few of its results, in no order. Values joined by “and” are separate records of one study, mostly repeats; a detail may differ.
UniProt P19784, sequence (whole entry, looked up): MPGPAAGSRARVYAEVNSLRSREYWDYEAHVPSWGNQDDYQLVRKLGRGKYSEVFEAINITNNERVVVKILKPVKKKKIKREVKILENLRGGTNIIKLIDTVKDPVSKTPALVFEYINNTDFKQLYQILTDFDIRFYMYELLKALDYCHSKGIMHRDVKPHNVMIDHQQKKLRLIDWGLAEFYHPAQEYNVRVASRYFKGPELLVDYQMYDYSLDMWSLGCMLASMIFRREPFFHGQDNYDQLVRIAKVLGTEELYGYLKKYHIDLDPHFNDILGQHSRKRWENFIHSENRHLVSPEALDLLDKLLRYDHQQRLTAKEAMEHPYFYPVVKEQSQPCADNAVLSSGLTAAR
UniProt P29322, sequence (whole entry, looked up): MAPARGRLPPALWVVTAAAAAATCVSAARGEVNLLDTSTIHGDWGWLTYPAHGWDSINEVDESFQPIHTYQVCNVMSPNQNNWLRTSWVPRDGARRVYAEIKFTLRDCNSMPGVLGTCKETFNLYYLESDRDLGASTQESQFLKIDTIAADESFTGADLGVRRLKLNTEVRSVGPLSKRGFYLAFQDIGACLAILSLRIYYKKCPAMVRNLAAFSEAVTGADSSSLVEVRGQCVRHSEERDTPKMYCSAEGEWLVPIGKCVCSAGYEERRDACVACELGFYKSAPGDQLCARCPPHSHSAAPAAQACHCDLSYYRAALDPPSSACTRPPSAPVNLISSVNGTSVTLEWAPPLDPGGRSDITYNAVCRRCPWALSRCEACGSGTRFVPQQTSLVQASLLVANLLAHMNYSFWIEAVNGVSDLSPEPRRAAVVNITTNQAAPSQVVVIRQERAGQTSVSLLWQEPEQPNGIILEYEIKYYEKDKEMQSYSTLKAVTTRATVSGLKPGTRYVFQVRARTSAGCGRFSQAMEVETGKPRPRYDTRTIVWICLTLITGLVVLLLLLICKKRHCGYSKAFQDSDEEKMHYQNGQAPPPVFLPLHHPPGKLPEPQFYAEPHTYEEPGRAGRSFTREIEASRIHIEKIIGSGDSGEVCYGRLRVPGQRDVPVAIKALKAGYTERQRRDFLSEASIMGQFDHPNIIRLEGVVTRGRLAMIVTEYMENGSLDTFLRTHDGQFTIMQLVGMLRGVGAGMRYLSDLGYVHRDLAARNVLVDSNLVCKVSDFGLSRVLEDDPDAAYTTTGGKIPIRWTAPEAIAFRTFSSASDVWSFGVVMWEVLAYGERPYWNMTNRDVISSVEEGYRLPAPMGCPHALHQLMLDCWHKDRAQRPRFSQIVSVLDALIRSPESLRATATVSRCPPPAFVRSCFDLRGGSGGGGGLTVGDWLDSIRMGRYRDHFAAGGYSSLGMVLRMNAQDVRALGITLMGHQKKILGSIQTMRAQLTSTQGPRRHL
UniProt Q09013, sequence (whole entry, looked up): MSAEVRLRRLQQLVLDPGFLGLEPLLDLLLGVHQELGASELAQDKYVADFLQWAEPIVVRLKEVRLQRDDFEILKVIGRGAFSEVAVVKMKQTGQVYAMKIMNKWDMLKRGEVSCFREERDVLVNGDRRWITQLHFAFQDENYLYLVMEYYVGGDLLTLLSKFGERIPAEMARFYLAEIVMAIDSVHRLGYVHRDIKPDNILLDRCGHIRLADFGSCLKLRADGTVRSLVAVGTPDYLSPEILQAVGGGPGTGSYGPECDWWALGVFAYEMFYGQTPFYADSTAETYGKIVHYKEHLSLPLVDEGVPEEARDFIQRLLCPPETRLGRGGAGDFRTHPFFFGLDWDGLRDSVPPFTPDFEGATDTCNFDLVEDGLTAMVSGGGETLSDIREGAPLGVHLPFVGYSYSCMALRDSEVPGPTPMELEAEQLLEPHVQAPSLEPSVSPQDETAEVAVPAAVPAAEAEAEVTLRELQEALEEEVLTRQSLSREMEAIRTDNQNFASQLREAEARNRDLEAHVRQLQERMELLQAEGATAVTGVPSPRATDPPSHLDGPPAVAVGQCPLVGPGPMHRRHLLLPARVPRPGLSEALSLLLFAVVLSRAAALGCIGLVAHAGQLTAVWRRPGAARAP
UniProt Q9UPE1, sequence (whole entry, looked up): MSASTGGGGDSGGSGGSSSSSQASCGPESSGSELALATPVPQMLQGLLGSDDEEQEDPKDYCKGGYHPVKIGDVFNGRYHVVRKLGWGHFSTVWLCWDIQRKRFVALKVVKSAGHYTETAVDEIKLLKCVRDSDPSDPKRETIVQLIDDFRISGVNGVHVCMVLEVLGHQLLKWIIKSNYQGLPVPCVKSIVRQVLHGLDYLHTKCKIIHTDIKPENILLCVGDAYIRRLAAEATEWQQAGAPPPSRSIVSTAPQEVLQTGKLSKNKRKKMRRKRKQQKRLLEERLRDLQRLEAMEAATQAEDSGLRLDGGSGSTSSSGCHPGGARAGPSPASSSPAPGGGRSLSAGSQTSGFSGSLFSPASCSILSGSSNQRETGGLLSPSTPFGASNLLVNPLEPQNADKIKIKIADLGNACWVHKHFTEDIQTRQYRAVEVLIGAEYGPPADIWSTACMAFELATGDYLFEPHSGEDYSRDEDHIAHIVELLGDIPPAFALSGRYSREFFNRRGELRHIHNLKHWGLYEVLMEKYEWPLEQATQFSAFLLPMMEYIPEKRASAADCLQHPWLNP
UniProt Q9H422, sequence (whole entry, looked up): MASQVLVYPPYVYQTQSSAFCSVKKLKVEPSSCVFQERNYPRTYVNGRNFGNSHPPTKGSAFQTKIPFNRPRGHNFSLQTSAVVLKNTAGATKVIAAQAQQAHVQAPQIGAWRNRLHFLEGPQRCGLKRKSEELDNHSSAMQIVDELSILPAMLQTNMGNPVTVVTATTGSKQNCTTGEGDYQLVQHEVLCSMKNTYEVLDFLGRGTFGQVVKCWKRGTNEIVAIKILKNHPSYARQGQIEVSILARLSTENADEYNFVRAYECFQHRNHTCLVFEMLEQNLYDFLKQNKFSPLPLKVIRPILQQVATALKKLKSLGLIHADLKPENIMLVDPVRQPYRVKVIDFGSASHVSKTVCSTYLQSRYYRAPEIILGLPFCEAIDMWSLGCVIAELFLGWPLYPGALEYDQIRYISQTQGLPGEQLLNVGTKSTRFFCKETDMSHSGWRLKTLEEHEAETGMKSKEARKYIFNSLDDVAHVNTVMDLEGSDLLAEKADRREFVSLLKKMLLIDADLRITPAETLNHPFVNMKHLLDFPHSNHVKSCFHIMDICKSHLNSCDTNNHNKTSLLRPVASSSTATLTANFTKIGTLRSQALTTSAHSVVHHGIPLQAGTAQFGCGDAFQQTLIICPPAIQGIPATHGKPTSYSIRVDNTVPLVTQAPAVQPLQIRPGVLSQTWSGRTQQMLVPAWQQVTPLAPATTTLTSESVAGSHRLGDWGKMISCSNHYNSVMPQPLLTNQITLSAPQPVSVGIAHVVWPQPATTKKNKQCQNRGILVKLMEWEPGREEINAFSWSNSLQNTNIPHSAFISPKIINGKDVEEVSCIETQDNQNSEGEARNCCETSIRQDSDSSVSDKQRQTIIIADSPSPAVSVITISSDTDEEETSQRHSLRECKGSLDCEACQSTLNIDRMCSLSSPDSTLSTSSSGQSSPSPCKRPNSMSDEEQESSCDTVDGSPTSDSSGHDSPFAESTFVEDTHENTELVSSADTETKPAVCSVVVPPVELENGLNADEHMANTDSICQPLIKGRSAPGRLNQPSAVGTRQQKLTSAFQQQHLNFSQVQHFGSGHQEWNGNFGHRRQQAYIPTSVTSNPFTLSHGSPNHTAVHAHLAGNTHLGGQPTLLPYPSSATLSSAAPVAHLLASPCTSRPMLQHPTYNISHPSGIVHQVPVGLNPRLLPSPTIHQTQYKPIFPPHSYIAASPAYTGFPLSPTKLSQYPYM

Block 1
SMILES: CC(C)CC(=O)N1CCc2nc(-c3ccc(Br)cc3)nc(N(C)Cc3ccccc3)c2C1
Effect on: cell-free assay
Technique: competition with immobilised ligand
Concentration: 0.1 µM
Endpoint: remaining binding
target = STK16 (Homo sapiens, UniProt O75716); value = 100%
target = MAP2K3 (Homo sapiens, UniProt P46734); value = 100%
target = SGK2 (Homo sapiens, UniProt Q9HBY8); value = 94%
target = MAP4K2 (Homo sapiens, UniProt Q12851); value = 100%
target = CILK1 (Homo sapiens, UniProt Q9UPZ9); value = 100%
target = AKT3 (Homo sapiens, UniProt Q9Y243); value = 64%
target = FLT3 (Homo sapiens, UniProt P36888, D835V); value = 95%
target = EPHA8 (Homo sapiens, UniProt P29322); value = 100%
target = SRPK3 (Homo sapiens, UniProt Q9UPE1); value = 79%
target = MAP4K1 (Homo sapiens, UniProt Q92918); value = 93%
target = SRMS (Homo sapiens, UniProt Q9H3Y6); value = 100%
target = CIT (Homo sapiens, UniProt O14578); value = 100%
target = ERBB2 (Homo sapiens, UniProt P04626); value = 82%
target = MELK (Homo sapiens, UniProt Q14680); value = 67%
target = Tyrosine-protein kinase ABL1, non-phosphorylated (ABL1, Homo sapiens, UniProt P00519, T315I); value = 100%
target = STK25 (Homo sapiens, UniProt O00506); value = 100%

Block 2
Species: human
Matrix: microsomes or S9
Concentration: 2 µM
Time: 0.5 h
Endpoint: remaining compound
SMILES = Cc1ccc(C2Nc3ccc4ccccc4c3C3=C2CC(C)(C)CC3=O)o1 (stereo not drawn); value = 3.57%
SMILES = CCCn1cc(S(=O)(=O)N2CCC(c3nc4cnccn4c3NC(C)(C)C)CC2)c(C)n1; value = 2%
SMILES = CC(C)(C)c1cc(O)c2o/c(=N\c3ccc(S(N)(=O)=O)cc3)c(C(N)=O)cc2c1; value = 96%
SMILES = CCOc1cc(-c2nnc3[nH]c(=O)n(C)c(=O)c3n2)ccc1OC(C)C; value = 86.2%
SMILES = Cc1nn(-c2ccc(F)cc2)c(C)c1C1CC(=O)Nc2c1c(C)nn2-c1ncnc2[nH]cnc12 (stereo not drawn); value = 75.3%
SMILES = Cc1ccc(NC(=O)N2Cc3c(sc4c3CCCC4)-n3cccc3C2C)cc1Cl (stereo not drawn); value = 14.8%
SMILES = COc1cc(=O)[nH]cc1C(=O)N1CCNC(c2ccccc2)C1 (stereo not drawn); value = > 99%
SMILES = O=S1(=O)N=C(N2CCOCC2)c2ccccc21; value = > 99%
SMILES = COc1ccc(-c2oc3cc(OC)c(OC)c(OC)c3c(=O)c2OC)cc1OC; value = 27.8%
SMILES = O=C(C(F)CC1CCCCC1)N1CCC(N2CCCCC2=O)CC1 (stereo not drawn); value = 72%
SMILES = Cc1cc(OCC(O)CN2C(C)(C)CC(O)CC2(C)C)ccc1C(C)C (stereo not drawn); value = 26%

Block 3
SMILES: O=c1cc(N2CCOCC2)oc2c1ccc1ccccc12
Effect on: enzyme activity
Action: inhibitor
Concentration: 0.5 µM
Reference: control
Endpoint: remaining activity
target = BRSK1 (Homo sapiens, UniProt Q8TDC3); value = 100%
target = SLK (Homo sapiens, UniProt Q9H2G2); value = 102%
target = PKN2 (Homo sapiens, UniProt Q16513); value = 93.2%
target = PTK2B (Homo sapiens, UniProt Q14289); value = 94.3%
target = NEK9 (Homo sapiens, UniProt Q8TD19); value = 102%
target = CSNK2A2 (Homo sapiens, UniProt P19784); value = 78.6%
target = EGFR (Homo sapiens, UniProt P00533); value = 96.2%
target = CAMK1G (Homo sapiens, UniProt Q96NX5); value = 102%
target = CAMK1D (Homo sapiens, UniProt Q8IU85); value = 91.1%
target = NTRK3 (Homo sapiens, UniProt Q16288); value = 103%
target = ROCK2 (Homo sapiens, UniProt O75116); value = 95.9%
target = MAP3K8 (Homo sapiens, UniProt P41279); value = 98.3%
target = PRKD1 (Homo sapiens, UniProt Q15139); value = 102%
target = RET (Homo sapiens, UniProt P07949); value = 99.8%
target = Aurora kinase A (AURKA, Homo sapiens, UniProt O14965); value = 98%
target = MAPK10 (Homo sapiens, UniProt P53779); value = 73.8%
target = MAP3K2 (Homo sapiens, UniProt Q9Y2U5); value = 109%
target = DMPK (Homo sapiens, UniProt Q09013); value = 105%
target = HIPK3 (Homo sapiens, UniProt Q9H422); value = 107%
target = Cyclin-dependent kinase 2, with cyclin A (CDK2, Homo sapiens, UniProt P24941); value = 100%
target = DYRK4 (Homo sapiens, UniProt Q9NR20); value = 91.9%
target = ROS1 (Homo sapiens, UniProt P08922); value = 97%
target = CDK7 (Homo sapiens, UniProt P50613); value = 98.2%
target = GRK5 (Homo sapiens, UniProt P34947); value = 106%

Block 4
Compound: CCOc1ccc(Nc2c3c(nc4ccccc24)CCC3)cc1
Organism: Leishmania donovani
Strain: DD8
Matrix: promastigotes
Endpoint: promastigote number
setting = 0.33 µM, 72 h; value = 9.58e+06 and 9.76e+06
setting = 1.66 µM, 48 h; value = 4.37e+06 and 4.33e+06
setting = 6.66 µM, 48 h; value = 221000 and 251000
setting = 0.16 µM, 48 h; value = 4.37e+06 and 4.33e+06
setting = 1.66 µM, 72 h; value = 9.85e+06 and 9.76e+06
setting = 0.16 µM, 72 h; value = 9.76e+06 and 9.85e+06
setting = 33.33 µM, 48 h; value = 1560 and 1550
setting = 16.66 µM, 48 h; value = 1570 and 1250
setting = 66.66 µM, 72 h; value = 1250 and 1550

Repeated from above (block 3):
target = EGFR (Homo sapiens, UniProt P00533); value = 96.2%
target = CAMK1G (Homo sapiens, UniProt Q96NX5); value = 102%
target = CAMK1D (Homo sapiens, UniProt Q8IU85); value = 91.1%
target = NTRK3 (Homo sapiens, UniProt Q16288); value = 103%
target = ROCK2 (Homo sapiens, UniProt O75116); value = 95.9%
target = MAP3K8 (Homo sapiens, UniProt P41279); value = 98.3%
target = PRKD1 (Homo sapiens, UniProt Q15139); value = 102%
